Experimental data gathered from unrelated publications.
Numbered parts are unrelated; each lists some results of a single study. Positions count from the first letter of the parent shown.

Study 1
Target: RING finger protein unkempt homolog, zinc fingers 1-6, GST-SBP tag (UNK, Homo sapiens, UniProt Q9C0B0, residues 30-357)
Technique: RNA Bind-n-Seq
Molecule type: RNA
Matrix: in vitro
Concentration: not given
Setting: RNA with constant flanks, human and mouse sites, ends assumed
Baseline: input RNA pool
Direction: higher = stronger binding
Construct (chain): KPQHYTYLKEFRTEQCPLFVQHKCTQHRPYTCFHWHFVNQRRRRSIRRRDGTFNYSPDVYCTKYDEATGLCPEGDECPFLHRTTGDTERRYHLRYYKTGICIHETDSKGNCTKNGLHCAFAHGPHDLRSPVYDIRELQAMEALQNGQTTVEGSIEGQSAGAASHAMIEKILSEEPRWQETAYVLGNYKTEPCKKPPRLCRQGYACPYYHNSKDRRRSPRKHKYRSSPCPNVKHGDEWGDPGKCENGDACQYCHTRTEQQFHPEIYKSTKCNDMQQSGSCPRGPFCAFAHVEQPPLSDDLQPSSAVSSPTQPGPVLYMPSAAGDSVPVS
With `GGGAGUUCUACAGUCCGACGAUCGAAGCAGACAAUGAUAAUUAUGAAGUUUUAUUCAAUUUGGAGGAACUUAAGUUAGACCAGCCCUUCAUUGAUUGUAUCAGAGUUGCUCCAGAUGAAAAAUAUGUGGCUGCCAAGAUAAGACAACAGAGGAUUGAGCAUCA` the bound/input enrichment was 0.333 ratio.
`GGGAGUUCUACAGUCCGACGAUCAACUUAAUCCAGAGUUACUUGUAGCUCCUCAGAGUCUUCUUAGUCUGGGCUGCCCUGACCAUGGAUGGAGCAUCAGCCAAACAGGAUGGCCUCUGGGAAAGCAAGUCCAGCAGUGAUGUUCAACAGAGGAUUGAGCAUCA` has a bound/input enrichment of 0.251 ratio.
The bound/input enrichment of `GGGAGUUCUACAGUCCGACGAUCUCAGAUGAACAAGAAGAUGAAGAUGCCAUCGUCAACAGGAUUUCGUUGUUUUUGAGCACGUUCACUCUCGCAGUGUCAGCUGGGGCUGUUUUGCUUUUACCCUUCUCAAUCAUCAGCAAUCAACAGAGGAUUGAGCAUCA` is reported as 0.0692 ratio.
The bound/input enrichment of `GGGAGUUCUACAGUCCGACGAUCCAGAAACUUUGUGAAAUUGAAAGGAUACAUUUCUUUCUGAGUAAGAAAAAACCAGAUGAACUUAGAAAUCUACACAAACUGCUUUACAACAGGCCGGGCACAGUGUCCUCGUUGAAGAAGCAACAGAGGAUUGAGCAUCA` is reported as 0.22 ratio.
For `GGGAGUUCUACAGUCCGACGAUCAGUGGACCAGGAGCAGCUUGGAGUUUUAACUUUCAUUUUACAAAGAACAACAUGUUUGAAUGUUUCAGCAGGCAAGUUAUAACUGGCAUCUACUUCUUGUUCUUCUAGAACACCGAAAAUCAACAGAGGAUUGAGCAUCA`, the bound/input enrichment was 0.216 ratio.
The bound/input enrichment of `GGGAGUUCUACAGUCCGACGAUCAGCAUGCUGCAGCGCAAGAUUGCAGAGCUGGAAGAGGAGCGGUCCCAGGGGUCCACCAGCAACAGUGACUGGAUGAAAAACCUCAUCUCCCCUGACCUGGGGGUUGUGUUUCUCAACGUACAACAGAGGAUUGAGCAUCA` is reported as 0.123 ratio.
For `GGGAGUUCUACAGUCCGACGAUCCUUGGACAGGAGAAGGCACUUGAACAGAUACUGGAAUAUGAACUACUUCUUAUACAGCAACUUAAUUUCCACCUUAUUGUCCACAAUCCUUACAGACCAUUUGAGGGCUUCCUCAUCGACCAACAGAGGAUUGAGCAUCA`, the bound/input enrichment was 0.11 ratio.
The bound/input enrichment of `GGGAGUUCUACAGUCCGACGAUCCUCAAAGAAUUGCUUUCUUGGAAAGUUUUGAGCACAGAAGACUAUACAACCUGUUUUUCUAGCAGAAAUUUUCUAAAUGAAGCAGUGGACUAUGUUAUUCGCCACUUGAUUCAAGAAAAUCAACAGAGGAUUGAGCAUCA` is reported as 0.148 ratio.
The bound/input enrichment of `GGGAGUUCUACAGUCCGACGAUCAUUAAUGAGGGCCUUAAAGCUGCUGACAACGACCCCACGGCGCCACCGUAUGACUCCCUCUUAGUCUUUGACUACGAGGGCAGCGGCUCCACGGCUGGCUCCUUGAGCUCCCUCAACUCCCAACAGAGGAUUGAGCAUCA` is reported as 0.128 ratio.
`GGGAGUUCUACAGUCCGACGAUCGCCCUGACAGUGGGCGGGAAAACCGUGUCACGCUUCUAUAAACCUGACUCUAGAUUGGAAUUUUACCGAGAUCUUGGACUGCCACCAAAACAGAUACAUAAAAUCUUUCAUGUGACAGAUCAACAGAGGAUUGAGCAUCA` has a bound/input enrichment of 0.303 ratio.
The bound/input enrichment of `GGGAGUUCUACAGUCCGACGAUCUCUGAGGAAAAGGGACACCCCCAGGAGGAAUCUGAGGAGUCAAACGUCAGCAUGGCCAGUUUAGGGGAAAAGAGGGACCACCAUUCAACCCACUACAGGGCUUCAGAGGAAGAACCUGAACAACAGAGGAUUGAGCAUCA` is reported as 0.233 ratio.

Study 2
Target: CCND3, cyclin fold, Cln2 fusion (human)
Technique: yeast growth competition, sequencing
Matrix: yeast
Setting: weak parent motif
Baseline: not given
Direction: higher = stronger binding
Parent: RB1 docking peptide (human); PKPLKKLRFDIEG; partner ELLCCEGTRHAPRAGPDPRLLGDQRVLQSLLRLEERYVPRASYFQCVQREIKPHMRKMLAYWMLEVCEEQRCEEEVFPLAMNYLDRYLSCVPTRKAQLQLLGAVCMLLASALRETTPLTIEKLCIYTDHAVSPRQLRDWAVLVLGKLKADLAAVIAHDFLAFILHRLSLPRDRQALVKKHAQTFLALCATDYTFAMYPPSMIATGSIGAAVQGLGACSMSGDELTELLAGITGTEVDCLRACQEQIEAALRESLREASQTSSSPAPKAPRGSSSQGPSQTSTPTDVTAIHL
`PKPLFKLRFDIEG [K5F]` — result for “normalised enrichment score”: 0.0778.
`PKPYKKLRFDIEG [L4Y]` — result for “normalised enrichment score”: 0.214.
`PKPLKKLRFDIDG [E12D]`: “normalised enrichment score” 0.104.
`YKPLKKLRFDIEG [P1Y]` — result for “normalised enrichment score”: 0.142.
`PKPLKYLRFDIEG [K6Y]` — result for “normalised enrichment score”: 0.0709.
`PKPLKKLRFDYEG [I11Y]` — result for “normalised enrichment score”: 0.0717.
For `PKPLKKLRFVIEG [D10V]`, “normalised enrichment score” read 0.0971.
`PQPLKKLRFDIEG [K2Q]`: “normalised enrichment score” 0.0855.
`PKPLKKLRFDAEG [I11A]`: “normalised enrichment score” 0.163.
For `PKPLKKCRFDIEG [L7C]`, “normalised enrichment score” read 0.168.
For `PKCLKKLRFDIEG [P3C]`, “normalised enrichment score” read 0.221.
`PKPLKKLRNDIEG [F9N]` — result for “normalised enrichment score”: 0.22.
For `PKPLKKLRFDFEG [I11F]`, “normalised enrichment score” read 0.168.

Study 3
Target: Sal-like protein 4, full length isoform B (SALL4, Homo sapiens, UniProt Q9UJQ4-2, residues 1-616)
Technique: universal PBM
Molecule type: double-stranded DNA, one strand shown
Matrix: in vitro
Concentration: not given
Setting: 8-mer, flanks averaged, mean of replicates
Direction: higher = stronger binding
Construct (chain): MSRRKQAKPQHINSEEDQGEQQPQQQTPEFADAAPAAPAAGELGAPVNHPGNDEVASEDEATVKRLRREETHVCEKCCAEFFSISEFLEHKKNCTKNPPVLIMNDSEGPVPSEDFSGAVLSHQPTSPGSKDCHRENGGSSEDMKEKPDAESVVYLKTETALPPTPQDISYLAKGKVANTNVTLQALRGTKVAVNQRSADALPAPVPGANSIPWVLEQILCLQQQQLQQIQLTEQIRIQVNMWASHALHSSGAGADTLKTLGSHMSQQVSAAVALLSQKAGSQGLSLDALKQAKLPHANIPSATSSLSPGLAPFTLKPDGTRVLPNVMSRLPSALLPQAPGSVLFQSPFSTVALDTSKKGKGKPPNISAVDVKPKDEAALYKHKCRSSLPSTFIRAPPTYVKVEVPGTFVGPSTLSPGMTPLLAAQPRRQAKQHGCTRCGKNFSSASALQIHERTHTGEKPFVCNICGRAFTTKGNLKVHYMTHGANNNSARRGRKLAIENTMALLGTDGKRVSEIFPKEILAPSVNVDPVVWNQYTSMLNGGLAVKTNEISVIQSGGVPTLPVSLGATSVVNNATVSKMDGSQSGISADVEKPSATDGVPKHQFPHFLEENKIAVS
`AGAGTTAT` has an E-score of 0.17.
The E-score of `ACAGATTA` is reported as 0.0745.
With `GATACTTA` the E-score was 0.0839.
`AATAGATT` gave an E-score of 0.286.
`AACTGTTG` gave an E-score of 0.0822.
The E-score of `AAGCCTTC` is reported as -0.0354.
`CTCAGCTA` gave an E-score of -0.0253.
For `CCTCGAAG`, the E-score was -0.187.
The E-score of `GACCTTAA` is reported as 0.00367.
For `ACTTCGTG`, the E-score was -0.184.
`GAAGCCAA` gave an E-score of -0.046.
The E-score of `GCCTATAA` is reported as 0.175.

Mixed results
With `PhoQ, residues 284 288 289 292 302 303 SSCCRF` the fold induction was 9.65 (PhoP, residues 12 14 15 18 19 VQALL (Escherichia coli, UniProt P23836); Sort-seq, item: YFP reporter; E. coli; PhoQ-PhoP variant library, with: 10 µM Mg2+; baseline: high Mg2+ state, higher = stronger signaling).

Excerpt of the above (study 3):
`AACTGTTG` gave an E-score of 0.0822.
The E-score of `AAGCCTTC` is reported as -0.0354.
`CTCAGCTA` gave an E-score of -0.0253.
For `CCTCGAAG`, the E-score was -0.187.
The E-score of `GACCTTAA` is reported as 0.00367.
